Assay results of several laboratories.
Compare with care: the assays were run in different laboratories. ± marks the error that the study gave.

SMILES	test	system	conditions	tissue uptake
CN1Cc2cc(Cl)ccc2-n2c(nnc2C2CCN(c3cccc([18F])n3)CC2)C1		C57BL/6 mouse male, small intestine	intravenous, 3.7 MBq, 30 min	34.1 ± 12.7 %ID/g
CSCC[C@H](NC(=O)CNC(=O)[C@H](CCCCN)NC(=O)[C@H](CC(C)C)NC(=O)[C@@H]1CCCN1C(=O)[C@H](CO)NC(=O)[C@H](Cc1c[nH]cn1)NC(=O)[C@H](Cc1c[nH]c2ccccc12)NC(=O)[C@H](CCCNC(=N)N)NC(=O)[C@H](CC(C)C)NC(=O)[C@H](CCCNC(=N)N)NC(=O)[C@H](Cc1c[nH]c2ccccc12)NC(=O)[C@H](CS)NC(=O)CCCCCNC(=O)CN1CCN(CC(=O)O)CCN(CC(=O)O)CCN(CC(=O)O)CC1)C(=O)O [copper-64 labelled]	ex vivo biodistribution	male C57BL/6J mice, pancreas	intravenous, 1.85 MBq, 18 h, B16-F10 tumour-bearing	1.03 %ID/g
C[C@H](O)[C@@H](NC(=O)[C@H]1CCCN1C(=O)[C@@H](CCCCN)NC(=O)[C@@H](CO)NC(=O)[C@@H](Cc1ccc(O)cc1)NC(=O)[C@@H](CC(N)=O)NC(=O)CCOCCOCCOCCNC(=O)CN1CCN(CC(=O)O)CCN(CC(=O)O)CCN(CC(=O)O)CC1)C(=O)N[C@H](CC(=O)O)C(=O)N[C@H](CCCNC(=N)N)C(=O)N[C@H](CCC(N)=O)C(=O)N[C@H](Cc1ccc(O)cc1)C(=O)N[C@H](Cc1c[nH]cn1)C(=O)N[C@H](Cc1ccccc1)C(N)=O [gallium-68 labelled]		BALB/c nude mice U-87 MG tumour, muscle	intravenous, 1.85 MBq, 0.08333 h, radiolabelled	2.21 ± 0.27 %ID/g
CC[C@H](C)[C@H](NC(=O)[C@H](CCCNC(=N)N)NC(=O)[C@H](CCCCN)NC(=O)[C@H](Cc1ccc(O)cc1)NC(=O)[C@H](CC(=O)O)NC(=O)[C@H](C)NC(=O)CNC(=O)CCOCCOCCOCCNC(=O)CN1CCN(CC(=O)O)CCN(CC(=O)O)CCN(CC(=O)O)CC1)C(=O)N[C@H](C(=O)N[C@H](C(=O)N[C@@H](CCCCN)C(=O)N[C@H](C(=O)N[C@@H](CC(N)=O)C(N)=O)C(C)C)C(C)C)[C@@H](C)O [copper-64 labelled]	ex vivo gamma counting	C57BL/6J male mice, B16-F10 tumour, stomach	intravenous, 1.85 MBq, 5 min	1.6 ± 0.188 %ID/g
CC(C)C[C@@H](NC(=O)[C@@H](CCCNC(=N)N)NC(=O)[C@@H](Cc1c[nH]cn1)NC(=O)[C@@H](Cc1c[nH]c2ccccc12)NC(=O)[C@@H](Cc1c[nH]cn1)NC(=O)[C@@H](Cc1ccccc1)NC(=O)[C@H](NC(=O)[C@@H](Cc1ccc(O)cc1)NC(=O)CNC(=O)CNC(=O)CCOCCOCCOCCNC(=O)CN1CCN(CC(=O)O)CCN(CC(=O)O)CC1)[C@H](C)O)C(=O)N[C@H](CC(N)=O)C(=O)N1CCC[C@@H]1C(=O)O [gallium-68 labelled]	gamma counting	C57BL/6 mice, male, pancreas	intravenous, 1.85 MBq, 30 min	0.77 ± 0.24 %ID/g
CC[C@H](C)[C@H](NC(=O)[C@H](CCCNC(=N)N)NC(=O)[C@H](CCCCN)NC(=O)[C@H](Cc1ccc(O)cc1)NC(=O)[C@H](CC(=O)O)NC(=O)[C@H](C)NC(=O)CNC(=O)CCOCCOCCOCCNC(=O)CN1CCN(CC(=O)O)CCN(CC(=O)O)CCN(CC(=O)O)CC1)C(=O)N[C@H](C(=O)N[C@@H](CC(C)C)C(=O)N[C@@H](CCCCN)C(=O)N[C@H](C(=O)N[C@@H](CC(N)=O)C(N)=O)C(C)C)[C@@H](C)O [copper-64 labelled]	ex vivo gamma counting	C57BL/6J male mice, B16-F10 tumour, heart	intravenous, 1.85 MBq, 40 min	0.529 ± 0.088 %ID/g
CC[C@H](C)[C@H](NC(=O)[C@H](CCCCN)NC(=O)CNC(=O)[C@H](CC(C)C)NC(=O)[C@H](Cc1ccccc1)NC(=O)[C@H](CCCCN)NC(=O)[C@H](CO)NC(=O)[C@H](Cc1ccccc1)NC(=O)[C@H](Cc1c[nH]c2ccccc12)NC(=O)[C@H](CCC(N)=O)NC(=O)[C@@H](NC(=O)[C@H](Cc1ccccc1)NC(=O)CCCCCNC(=O)CN1CCN(CC(=O)O)CCN(CC(=O)O)CCN(CC(=O)O)CC1)C(C)C)C(=O)N[C@@H](CCC(=O)O)C(=O)N1CCC[C@H]1C(=O)N[C@@H](CC(=O)O)C(=O)N[C@H](C(=O)N[C@@H](CO)C(=O)N[C@@H](CCC(N)=O)C(=O)N[C@H](C(=O)N[C@@H](CCC(N)=O)C(=O)N[C@@H](CC(=O)O)C(=O)N1CCC[C@H]1C(=O)N[C@@H](CC(N)=O)C(=O)N[C@@H](CC(=O)O)C(=O)N[C@@H](CCC(N)=O)C(=O)N[C@@H](Cc1ccc(O)cc1)C(=O)N[C@@H](CCC(=O)O)C(=O)N1CCC[C@H]1C(=O)N[C@@H](Cc1ccccc1)C(=O)O)C(C)C)C(C)C [copper-64 labelled]		BALB/c mice, male, CT26 tumour-bearing, pancreas	2 h, vehicle-treated	1.44 ± 1.3 %ID/g
CCCC[C@H]1C(=O)N(C)[C@@H](CCCC)C(=O)N[C@@H](CCCNC(=O)CN2CCN(CC(=O)O)CCN(CC(=O)O)CCN(CC(=O)O)CC2)C(=O)N[C@H](C(=O)NCC(N)=O)CSCC(=O)N[C@@H](Cc2ccc(O)cc2)C(=O)N(C)[C@@H](C)C(=O)N[C@@H](CC(N)=O)C(=O)N2CCC[C@H]2C(=O)N[C@@H](Cc2c[nH]cn2)C(=O)N[C@@H](CC(C)C)C(=O)N(C)CC(=O)N[C@@H](Cc2c[nH]c3ccccc23)C(=O)N[C@@H](CO)C(=O)N[C@@H](Cc2c[nH]c3ccccc23)C(=O)N1C [gallium-68 labelled]		NOD/SCID mice with CHO-hPD-L1 xenograft, spleen	30 min post injection	3.27 ± 0.23 %ID/g

Some of these lines once more:
SMILES	test	system	conditions	tissue uptake
CSCC[C@H](NC(=O)CNC(=O)[C@H](CCCCN)NC(=O)[C@H](CC(C)C)NC(=O)[C@@H]1CCCN1C(=O)[C@H](CO)NC(=O)[C@H](Cc1c[nH]cn1)NC(=O)[C@H](Cc1c[nH]c2ccccc12)NC(=O)[C@H](CCCNC(=N)N)NC(=O)[C@H](CC(C)C)NC(=O)[C@H](CCCNC(=N)N)NC(=O)[C@H](Cc1c[nH]c2ccccc12)NC(=O)[C@H](CS)NC(=O)CCCCCNC(=O)CN1CCN(CC(=O)O)CCN(CC(=O)O)CCN(CC(=O)O)CC1)C(=O)O [copper-64 labelled]	ex vivo biodistribution	male C57BL/6J mice, pancreas	intravenous, 1.85 MBq, 18 h, B16-F10 tumour-bearing	1.03 %ID/g
